Measured values from different studies.
Each line is one published result; not all experiments were run side by side. ± marks the error that the study gave.
APP: Amyloid-beta precursor protein (APP, Homo sapiens, UniProt P05067)
Tubulin alpha-1B chain/TUBB2B: Tubulin alpha-1B chain/TUBB2B (Bos taurus, UniProt P81947+Q6B856)
ADRA2A: Alpha-2A adrenergic receptor (ADRA2A, Homo sapiens, UniProt P08913)
HDAC2: Histone deacetylase 2 (HDAC2, Homo sapiens, UniProt Q92769)
DIO2: Type II iodothyronine deiodinase (DIO2, Homo sapiens, UniProt Q92813)

Substance | target | assay | test system | setting | scale | inhibition
COc1cc(/C=C/C(=O)CC(=O)/C=C/c2ccc(O)c(OC)c2)ccc1O | APP | amyloid aggregation, inhibitor, fluorescence |  | 50 µM |  | 50.2%
COc1ccc(C[C@H]2NC(=O)/C=C/C[C@@H]([C@H](C)[C@H]3O[C@@H]3c3ccccc3)OC(=O)[C@H](CC(C)C)OC(=O)[C@H](C)CNC2=O)cc1Cl | Tubulin alpha-1B chain/TUBB2B | [3H]DZA binding |  | 30 µM, 1.5 h preincubation, pH 6.9, added: [3H]DZA 4.0 µM |  | 59 ± 4%
CC1N=C(c2ccccc2F)c2cc(Nc3ccc(S(C)(=O)=O)cc3)ccc2NC1=O (centres unmarked) | ADRA2A | ligand displacement, radioligand |  | 10 µM |  | 10%
O=C(NCc1ccc(-c2ccccc2)cc1)c1coc(-c2ccccc2O)n1 | HDAC2 | enzyme activity, inhibitor |  | 20 µM |  | ≥ 50%
CC12CC3CC1(C)C1(C)CC3(CN)CC21C.Cl | Glutamate NMDA receptor; Grin1/Grin2a (Grin1/Grin2a, Rattus norvegicus, UniProt P35439+Q00959) | NMDA-evoked current, channel blocker, whole-cell patch clamp | tsA201 cells | 10 µM, holding potential -60 mV, added: 100 µM NMDA plus 10 µM glycine |  | 88.3 ± 3.7%
CCCCCCCCCCCCCCCc1cccc(O)c1C(=O)O | EP300 (Homo sapiens, UniProt Q09472) | enzyme activity, inhibitor, radiometric |  | 200 µM |  | ≤ 35%
Cc1ccc(Nc2ccc3c(c2)C(c2ccccc2F)=NC(C)C(=O)N3)cc1 (centres unmarked) | ADRA2A | ligand displacement, radioligand |  | 10 µM |  | 66%
C[C@]1(Cn2ccnn2)[C@H](C(=O)O)N2C(=O)C[C@H]2S1(=O)=O | VIM-2 (Escherichia coli, UniProt Q5U7L7) | enzyme activity, inhibitor |  | 50 µM |  | ≤ 25%
CS(=O)(=O)c1ccc2nc(NC(=O)CCN3CCN(c4ccc(F)cc4)CC3)sc2c1 | APP | amyloid aggregation, inhibitor, fluorescence |  | 50 µM |  | 55.5%
O=C(Nc1ccccc1)c1coc(-c2ccccc2O)n1 | HDAC2 | enzyme activity, inhibitor |  | 20 µM |  | 30%
Cl.Cl.Fc1ccc(C(OCCN2CCN(CCCc3ccccc3)CC2)c2ccc(F)cc2)cc1 | SCN10A (Homo sapiens, UniProt Q9Y5Y9) | sodium influx, inhibitor, FLIPR | HEK293 | 10 µM, added: deltamethrin 10 µM |  | 87%
O=CN(O)CCCc1ccc(Cl)c(Cl)c1 | 1-deoxy-D-xylulose 5-phosphate reductoisomerase (Escherichia coli K-12, UniProt P45568) | enzyme activity |  | 100 µM |  | inactive
CS(=O)(=O)c1ccc2nc(NC(=O)CCN3CCN(C(c4ccccc4)c4ccccc4)CC3)sc2c1 | APP | amyloid aggregation, inhibitor, fluorescence |  | 50 µM |  | 52.2%
CC1N=C(c2ccccc2F)c2cc(N3CCCCC3)ccc2NC1=O (centres unmarked) | ADRA2A | ligand displacement, radioligand |  | 10 µM |  | 9%
CC[C@H](C)[C@@H]([C@@H](CC(=O)N1CCC[C@H]1[C@H](OC)[C@@H](C)C(=O)N[C@@H](Cc1ccccc1)c1nccs1)OC)N(C)C(=O)[C@@H](NC(=O)[C@H](C(C)C)N(C)C)C(C)C | Tubulin alpha-1B chain/TUBB2B | [3H]DZA binding, inhibitor | bovine | 30 µM, 1.5 h preincubation, pH 6.9, added: [3H]DZA 4.0 µM |  | 55 ± 5%
CS(=O)(=O)c1ccc2nc(NC(=O)CCN3CCN(c4ccccc4)CC3)sc2c1 | APP | amyloid aggregation, inhibitor, fluorescence |  | 50 µM |  | 54.3%
Brc1ccc(Oc2cc(Br)c(Br)cc2Br)c(Br)c1 | DIO2 |  | H4 glioma | 500 nM, 6 h, added: 10 µM MG132 + 100 µM cycloheximide | reference: MG132 + cycloheximide | 14.9 ± 5.3%
CN(C)C/C=C/C(=O)Nc1cccc(C(=O)Nc2ccc(Nc3nccc(-c4cccnc4)n3)cc2)c1 | MAPK14 (Homo sapiens, UniProt Q16539) | target engagement in cells, inhibitor, chemoproteomics | A-375 | 1 µM |  | 14.7%

Substance | target | assay | test system | setting | scale | inhibition
O=Cc1cc(O)c(O)cc1O | dxs (Escherichia coli, UniProt P77488) | inhibitor |  |  | inactive up to value | > 75 µM
CS(=O)(=O)c1ccc2nc(NC(=O)CCN3CCN(Cc4ccccc4)CC3)sc2c1 | APP | amyloid aggregation, inhibitor, fluorescence |  | 50 µM |  | 53.4%
O=C(N[C@@H](Cn1ccnc1)c1c(F)cc(-c2ccc(F)cc2)cc1F)c1ccc(-c2nnc(-c3ccccc3)o2)cc1 | Putative lanosterol 14-alpha-demethylase (Leishmania infantum, UniProt A2TEF2) | enzyme activity, inhibitor |  | equimolar to enzyme, 1 h, Leishmania infantum CYP51, added: obtusifoliol 50 µM |  | inhibited
CS(=O)(=O)c1ccc2nc(NC(=O)CCN3CCN(C(=O)OCc4ccccc4)CC3)sc2c1 | APP | amyloid aggregation, inhibitor, fluorescence |  | 50 µM |  | 52.4%
O=C(NC(c1ccccc1)c1ccccc1)c1coc(-c2ccccc2O)n1 | HDAC2 | enzyme activity, inhibitor |  | 20 µM |  | ≥ 50%
COc1ccccc1Nc1ccc2c(c1)C(c1ccccc1F)=NC(C)C(=O)N2 (centres unmarked) | ADRA2A | ligand displacement, radioligand |  | 10 µM |  | 74%
C=C1C[C@@H]2CC[C@@]34C[C@H]5O[C@H]6[C@@H](O3)[C@H]3O[C@H](CC[C@@H]3O[C@H]6[C@H]5O4)CC(=O)O[C@@H]3[C@@H](C)[C@@H]4O[C@@H]5C[C@]6(C[C@@H]7O[C@]8(C[C@H](C)[C@@H]9O[C@H]([C@@H](O)C[C@@H](O)CO)C[C@@H]9O8)C[C@H](C)[C@@H]7O6)O[C@@H]5C[C@@H]4O[C@H]3C[C@H]3O[C@@H](CC[C@@H]1O2)C[C@@H](C)C3=C | Tubulin alpha-1B chain/TUBB2B | [3H]DZA binding |  | 30 µM, 1.5 h preincubation, pH 6.9, added: [3H]DZA 4.0 µM |  | 23 ± 6%
CS(=O)(=O)c1ccc2nc(NC(=O)CCN3CCN(c4ccccn4)CC3)sc2c1 | APP | amyloid aggregation, inhibitor, fluorescence |  | 50 µM |  | 53.3%
Oc1cc(Oc2cc(Br)c(Br)cc2Br)c(Br)cc1Br | DIO2 |  | H4 glioma | 500 nM, 6 h | reference: untreated | 58.9 ± 1.6%
Cc1ccc(Nc2ccc3c(c2)C(c2ccccc2F)=NC(C)C(=O)N3)c(C)c1 (centres unmarked) | ADRA2A | ligand displacement, radioligand |  | 10 µM |  | 31%
COc1cccc2c1C(=O)c1c(O)c3c(c(O)c1C2=O)C[C@@](O)(C(C)=O)C[C@@H]3O[C@H]1C[C@H](N)[C@H](O)[C@H](C)O1 | SLC22A5 (Homo sapiens, UniProt O76082) | transporter uptake, inhibitor |  | 1.5 mM |  | 66.4%
CC1N=C(c2ccccc2F)c2cc(N(C)c3ccccc3)ccc2NC1=O (centres unmarked) | ADRA2A | ligand displacement, radioligand |  | 10 µM |  | 48%
Cc1cc(CC2(Cc3ccnc(C)c3)c3ccccc3C(=O)c3ccccc32)ccn1 | Voltage-gated potassium channel, KQT; KCNQ2(Kv7.2)/KCNQ3(Kv7.3) (KCNQ3/KCNQ2, Homo sapiens, UniProt O43525+O43526) | potassium current, inhibitor, manual patch clamp | tsA201 (transfected) | 1.5 µM |  | inhibited
CC1N=C(c2ccccc2F)c2cc(Nc3ccc(C#N)cc3)ccc2NC1=O (centres unmarked) | ADRA2A | ligand displacement, radioligand |  | 10 µM |  | 49%
anabaenopeptin 908 | Carboxypeptidase A1 (CPA1, Bos taurus, UniProt P00730) | enzyme activity, inhibitor |  | up to 20 µg/mL, pH 7.5, added: hippuryl-L-phenylalanine 1 mM |  | inactive
CS(=O)(=O)c1ccc2nc(NC(=O)CCN3CCN(c4ccc([N+](=O)[O-])cc4)CC3)sc2c1 | APP | amyloid aggregation, inhibitor, fluorescence |  | 50 µM |  | 54.3%
CC1N=C(c2ccccc2F)c2cc(Nc3cccc(C#N)c3)ccc2NC1=O (centres unmarked) | ADRA2A | ligand displacement, radioligand |  | 10 µM |  | < 50%
